Assay results from different studies.
Each numbered part is a random draw from the data of one study; scales do not carry over between parts.

Set 1
Target: Sal-like protein 4, full length isoform B (SALL4, Homo sapiens, UniProt Q9UJQ4-2, residues 1-616)
Method: universal PBM
Form: double-stranded DNA, one strand shown
Matrix: in vitro
Concentration: not given
Notes: 8-mer, flanks averaged, mean of replicates
Direction: higher = stronger binding
Strand	E-score
ATCTCCGA	-0.0254
GGTGAAGA	-0.167
GCGTATTA	0.214
GACCGGGA	-0.35
CGAAGTAG	-0.0392
ATGGTCCC	-0.165
GCTTCACC	-0.143
AACTGTTA	0.221
GAACCAGC	-0.13
ATATAGCC	0.213
GACGACCC	-0.222
GCTCAAAC	-0.108
CGAGAGAG	-0.102
CCACTACA	-0.0176
GATACCTA	0.121
ACGGAGAT	-0.189
AACGCTAC	-0.00501
ACTCTCCT	0.00266
AAAGCGTC	-0.117
GGGGGCCA	-0.35
GACGTGTA	0.0171

Set 2
Target: RNA binding protein fox-1 homolog 2, RRM domain, GST-SBP tag (RBFOX2, Homo sapiens, UniProt O43251-10, residues 100-194)
Method: RNA Bind-n-Seq
Form: RNA
Matrix: in vitro
Concentration: 365 nM
Notes: natural RNA segment, single round, ends assumed
Reference: no-protein control
Direction: higher = stronger binding
Construct (chain): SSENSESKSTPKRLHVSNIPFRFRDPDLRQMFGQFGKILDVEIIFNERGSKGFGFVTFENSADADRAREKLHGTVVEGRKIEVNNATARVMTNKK
Strand	RBNS enrichment (R)
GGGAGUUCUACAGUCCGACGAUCUGGUCAAAACAAACUUCCUUUUCCCUUGAUCACCCUGCACGCAGCUGCCCAGCUUCCAGUUUUUAAAGAGAUGAACAGCUCUCACUUCCUGACUCAGUUUCUCUUGUUGGUGGAAUUCUCGGGUGCCAA	3.14
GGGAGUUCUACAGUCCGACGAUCAAAUUGGUUUAGUUGCUGUAUAUCACCAUAGCCCCUGUUUACGUCAAACCUGUGUCUCGCUCUAUAUGCACUUUGUUUACUCUUUAUACAAUAAACAUACUAAAGACUUCUGGAAUUCUCGGGUGCCAA	0.318
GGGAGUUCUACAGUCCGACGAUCCUUAGUACUAGUGUUUCCUACUUGAUCUCCCAUGCCUGUGGAGACUAAGCCCCCACUACCCCAGAGCUAUCUUCUGUAGCCCAAAGGCAAGGCAGUGACCUCCUACUGACUGGAAUUCUCGGGUGCCAA	0.519
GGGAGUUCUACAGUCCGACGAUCAAAGGACAGGUAUGAUGAUGCGAUAAUAAUAAACAUCUGCGUUUGUCUCUUCACUAAGAGUAAACUGGGAAAUUGUAGGCCAAAGUCCAGUUGAACUUUCUAAGUCUGUGUGGAAUUCUCGGGUGCCAA	0.374
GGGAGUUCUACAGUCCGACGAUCGGGGCCCUGACUCGUCACACUUCCCUUUCCUAAGCCUCUGAGGGUGGAGAUUCCCCUAGGAGCGCUUGGCCAGCUGGGAAGGCAGCGCCCAGCUGCACUUGUUGUUGAUAUGGAAUUCUCGGGUGCCAA	0.4
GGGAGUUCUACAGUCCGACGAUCGUUACUUAUUACCCUCUUUCUCUCAAGUGCUUUAAAGAAGAAACCUCCCUGGUGUUUCUUUUCUUUUUUUUUUUGAGACGGAGUCUUGCUUUGUUGCCCAGGCUGAAGUGUGGAAUUCUCGGGUGCCAA	0.592
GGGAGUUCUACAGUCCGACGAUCUACUGAAGUAUGCCAUGAUGUUUGUUGUUUUCUUUCAUCGUAAGCCUGUAAGCAGGAAAAAUACGUCAAAUCAGAUAGAAUAGAGCAUUUACCAGUGGUCGAUGGCCUGGUGGAAUUCUCGGGUGCCAA	0.649
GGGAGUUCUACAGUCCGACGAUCCUGGUGGAAGGCCCCUCCCCAUCGCCAGCCGGGCCCUCAUGCUGACCUUGCAAAUUCAGCCGCUGCUUUGAGCCCAAAAUGGGAAUAUUGGUUUUGUGUCCGAGGCUUGUUGGAAUUCUCGGGUGCCAA	0.567
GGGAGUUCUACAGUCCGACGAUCCUGCUGAGGACAGCCAGAAGCCCACACUGCCCUCUCACUUGGGUCCAGUUCUUGAUAGUUGGGGGCAGAGCCCCCACACUCCCUUAUACUUCCUGACUGUGCCAGGGCUUUGGAAUUCUCGGGUGCCAA	0.304

Set 3
Target: Interferon regulatory factor 7, full length, phosphomimetic (IRF7, Homo sapiens, UniProt Q92985, residues 1-503, S101K/S471D/S472D/S475D/S476D/S477D/S483D/S484D/S487D)
Method: protein-binding microarray
Form: double-stranded DNA, one strand shown
Matrix: in vitro
Concentration: 250 nM
Notes: 60-bp whole probe
Together with: salmon DNA 0.4 mg/ml
Reference: random background probes
Direction: higher = stronger binding
Constant ends, left off below: GCCTAGCAC … GTCTTGATTCGCTTGACGCTGCTG
Residues (chain): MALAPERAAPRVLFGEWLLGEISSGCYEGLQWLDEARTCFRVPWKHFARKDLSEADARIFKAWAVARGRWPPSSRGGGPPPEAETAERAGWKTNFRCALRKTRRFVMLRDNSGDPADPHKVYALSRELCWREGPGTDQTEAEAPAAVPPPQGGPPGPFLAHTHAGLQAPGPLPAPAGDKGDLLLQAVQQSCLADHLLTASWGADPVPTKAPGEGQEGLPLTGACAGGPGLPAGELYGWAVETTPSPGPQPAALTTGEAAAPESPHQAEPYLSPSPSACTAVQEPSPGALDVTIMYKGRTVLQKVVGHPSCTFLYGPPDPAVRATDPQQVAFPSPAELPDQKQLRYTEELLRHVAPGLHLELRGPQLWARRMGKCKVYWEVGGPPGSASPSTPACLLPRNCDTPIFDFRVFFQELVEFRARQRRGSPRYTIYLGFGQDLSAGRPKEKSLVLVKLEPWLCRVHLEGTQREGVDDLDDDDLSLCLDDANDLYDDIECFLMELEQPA
Strand	log fluorescence
TTAGGACTGGGGATTCGGTTAGTGCTA	0.929 z-score
TCATGTCTGGGATGTAATACTGTGCTA	-0.142 z-score
TTAGGTTTCCTTGCCCTTTAGTGCTAG	0.733 z-score
TACGGACTGGGTTTCGGGACGTGCTAG	1.98 z-score
GACGGTCTTGGACTGGGGACGTGCTAG	-0.349 z-score
TGGGGTTCACTCCGGTACCCGTGCTAG	-0.406 z-score
TTAGATTTCAGTTCCGATTGGTGCTAG	2.01 z-score
GACGGTCTCCTTTCCCTGACGTGCTAG	0.609 z-score
TTAGGTTTCGACACTGGGTTCGTGCTA	3.27 z-score
GACGGTATCCTGCTGCTGACGTGCTAG	-0.402 z-score
ATAGGTATCCTACTGCTTTAGTGCTAG	0.0213 z-score
TTAGATATGAGACTGGATTAGTGCTAG	-0.0687 z-score
TTAGATTTCGGGTACCGATTAGTGCTA	0.903 z-score
GACGGTTTCGGTTCCCGGACGTGCTAG	13.6 z-score
TTACGTTTCGGTATCGGTTAGTGCTAG	5.65 z-score
TTAGATTTCTGGTTTCGATTAGTGCTA	9.07 z-score
TTAGATCTCAGTCTCGATTAGTGCTAG	1.7 z-score
TTACGTATCGACTATCGGTTAGTGCTA	0.229 z-score
GACGATTTCGGGACTGGATACGTGCTA	0.212 z-score

Set 4
Target: RING finger protein unkempt homolog, zinc fingers 1-6, GST-SBP tag (UNK, Homo sapiens, UniProt Q9C0B0, residues 30-357)
Chain of UniProt Q9C0B0 (30-357, looked up): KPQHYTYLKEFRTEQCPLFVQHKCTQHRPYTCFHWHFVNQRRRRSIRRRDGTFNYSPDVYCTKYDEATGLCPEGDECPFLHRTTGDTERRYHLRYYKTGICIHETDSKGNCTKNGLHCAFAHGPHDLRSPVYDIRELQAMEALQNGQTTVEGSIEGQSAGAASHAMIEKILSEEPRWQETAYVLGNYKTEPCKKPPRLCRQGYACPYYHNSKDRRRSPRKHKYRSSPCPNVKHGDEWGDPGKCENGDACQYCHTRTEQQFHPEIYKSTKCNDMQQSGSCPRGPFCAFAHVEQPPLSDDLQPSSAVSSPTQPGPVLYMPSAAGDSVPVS
Method: RNA Bind-n-Seq
Form: RNA
Matrix: in vitro
Concentration: not given
Notes: RNA with constant flanks, ends assumed
Reference: input RNA pool
Direction: higher = stronger binding
Strand	bound/input enrichment [ratio]
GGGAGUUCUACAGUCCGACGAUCUCUGCGCGUGCGCCGGUGGCGGGACUCUGGGGAAAAUGGCUGCGUCUUCGAGUGGGAACUUACCGAAAUGCUGGCAAUUUCAAGAAACCAAAAGUUGUUACAGGCUGGAGAGGAAAACCACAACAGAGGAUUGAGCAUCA	0.137
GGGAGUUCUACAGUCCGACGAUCAGCAUGUUUAUAAUGUGCGCAGGACAAGCUUGAGAAUGGUCAUUGUGGUUAAUGUGCUGGUCCGUUGACGUUAUGACUACUUUAAGGAUUGUGACACACUCCUACUGAAAAACCUCAGUGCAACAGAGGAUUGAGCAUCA	0.11
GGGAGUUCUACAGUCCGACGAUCUGUAUACUGUUUUACCCAAACCCAGCAAAAAUGCAUGUGUCUGUCCACCAAAGGACAUGCACCCGAAUAUUUAUAGCCUAAAACUGCACAAAACAGAACUAUCUUAAGGCACAUGUGCAACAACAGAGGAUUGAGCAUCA	0.309
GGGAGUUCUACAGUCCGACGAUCCCAGGAGUGUAACUCUCUGAGUGAUGUGCUGGACACAUUUUCAAAAGCACCUACAUUUCCUGGCCGUAACUAUUUCUUAGCAAUGUGGAUAAUUGCCAAAAGGAUAUCUGAAGACAAGAGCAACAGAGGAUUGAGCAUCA	0.255
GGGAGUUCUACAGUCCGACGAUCCAAAGCAACCUUUCCCUUCCCCCGAGUGAUUUUGCGAAACCCCCUUUUCCCUUCAGCUUGCUCCGAUGUUCCAAAUUUAGAAAGCUUAAGGCGGCCUACAGAAAAAGGAAAAAAGGCCACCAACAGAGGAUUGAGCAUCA	1.57
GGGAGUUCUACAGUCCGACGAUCCCGUAUGAAAUGUGUAGUAGUGGUUUAGUCCAGGCACUUCUUACUGUUCUAAACAACCGUACCGAUUUGGAUAUGAAGCAAGAUUGUAGUCAACUGGUAGAAAGAAUAAAUGUCUUCAAACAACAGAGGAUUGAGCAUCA	1.45
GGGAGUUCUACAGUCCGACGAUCAUCAUACACUUCCUUCUUUUUUAAAAAAGUUGGGUUUUCUCCAUUCAGGAUUCUGUUCCUCCGGUUUUUUUCCUUCUGAAGUGUUUCACGAGAGCCCGGGAGCUGCUGCCCUGCGGCCCCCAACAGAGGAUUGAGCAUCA	0.276
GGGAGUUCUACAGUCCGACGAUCGUUAGACGUGGCCCUGUAUUUGGAAGUCUCUGACGGGUUGACAGUAUUAACACUCAAUUGCCGUUUACAGUAUUUAUACAUGACAGCCAUACAUGACGCCAAGCCAUGGGUUCUCAGUUUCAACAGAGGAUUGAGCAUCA	0.137
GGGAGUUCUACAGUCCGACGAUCAGUAUCAAUUGUGUGAGCUUGGGUGCGAGUGCACGCGUGCGUGAGUACGGAGAGUAUAUACCGAUCUCUAUCUCUUAGCAAAGGUGAAUGCCAGAUGUAAAUGGCGCCUCUGGGCAAAGGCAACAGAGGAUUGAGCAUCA	0.496
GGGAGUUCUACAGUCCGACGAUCAAGGGUAAUUAUUCGGAGCGGGUCGGCGCUGGUGCCCCGGUGUACCUGGCGGCUGUGCCCGAAUAUCUGACUGCUGAGAUCCUGGAAUUGGCUGGUAAUGCGGCCCGCGACAAUAAGAAGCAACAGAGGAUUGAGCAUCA	0.143
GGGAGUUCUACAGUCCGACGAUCGAAGGGGAGCACCAUGAGAAAGCGGUAGAGCUACUGAAAGCAGCCCAAGGGAAGGUUAAAUCCGUCGUACGGUACACACCAAAAGUCUUGGAAGAAAUGGAGUCCCGCUUUGAGAAAAUGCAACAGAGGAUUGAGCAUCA	0.194

Some of these lines once more (set 3):
Strand	log fluorescence
TCATGTCTGGGATGTAATACTGTGCTA	-0.142 z-score
TTAGGTTTCCTTGCCCTTTAGTGCTAG	0.733 z-score
TACGGACTGGGTTTCGGGACGTGCTAG	1.98 z-score
GACGGTCTTGGACTGGGGACGTGCTAG	-0.349 z-score
TGGGGTTCACTCCGGTACCCGTGCTAG	-0.406 z-score
TTAGATTTCAGTTCCGATTGGTGCTAG	2.01 z-score
GACGGTCTCCTTTCCCTGACGTGCTAG	0.609 z-score
TTAGGTTTCGACACTGGGTTCGTGCTA	3.27 z-score
GACGGTATCCTGCTGCTGACGTGCTAG	-0.402 z-score
